{"data": "Results from different studies", "note": "± marks the error that the study gave."}
{"Compound": "CCN(CC)CCOC(=O)c1ccc(N)cc1", "assay": "LC-MS", "test system": "BALB/c nude mouse, plasma", "conditions": "2 µM", "half-life [h]": 0.0702}
{"Compound": "Cc1ccc2c(-c3ccncc3)c(-c3ccc(F)cc3)nn2c1", "test system": "CD1 mouse female", "conditions": "oral, 25 mg/kg", "half-life [h]": 2.33}
{"Compound": "COc1cc(C)[nH]c(=O)c1CN1CCc2c(Cl)cc([C@H](OC)C3COC3)c(Cl)c2C1=O", "test system": "female CB17 SCID mouse, HT-1376 xenograft, plasma", "conditions": "75 mg/kg, day 1", "half-life [h]": 1.01}
{"Compound": "c1csc(CNc2cc[nH]n2)c1", "test system": "male CD-1 mouse, plasma", "conditions": "oral, 20 mg/kg, hydrochloride salt", "half-life [h]": 0.46}
{"Compound": "Fc1ccc(-c2nn3cc(F)ccc3c2-c2ccncc2)cc1", "test system": "CD1 mouse female", "conditions": "oral, 25 mg/kg", "half-life [h]": 25.7}
{"Compound": "CN1CCCC1CCNS(=O)(=O)c1ccc2c(c1)CN(CC1CCCCC1)CC2 (centres unmarked)", "test system": "mouse, brain", "conditions": "oral, 10 mg/kg", "half-life [h]": 15}
{"Compound": "CCC/C(=C\\C1=C(OC)C(=O)c2ccccc2C1=O)C(=O)N(CC)CC", "test system": "mouse, female, eye", "conditions": "intravitreal, 10 µM", "half-life [h]": 1.57}
{"Compound": "CC[C@H](C)[C@H](NC(=O)[C@H](CCC(=O)O)NC(=O)[C@H](CO)NC(=O)[C@@H](NC(=O)[C@@H](N)CO)C(C)C)C(=O)N[C@@H](CCC(N)=O)C(=O)N[C@@H](CC(C)C)C(=O)N[C@@H](CCSC)C(=O)N[C@@H](Cc1cnc[nH]1)C(=O)N[C@@H](CC(N)=O)C(=O)N[C@@H](CC(C)C)C(=O)NCC(=O)N[C@@H](CCCCN)C(=O)N[C@@H](Cc1cnc[nH]1)C(=O)N[C@@H](CC(C)C)C(=O)N[C@@H](CC(N)=O)C(=O)N[C@@H](CO)C(=O)N[C@@H](CCSC)C(=O)N[C@@H](CCC(=O)O)C(=O)N[C@@H](CCCNC(=N)N)C(=O)N[C@H](C(=O)N[C@@H](CCC(=O)O)C(=O)N[C@@H](Cc1c[nH]c2ccccc12)C(=O)N[C@@H](CC(C)C)C(=O)N[C@@H](CCCNC(=N)N)C(=O)N[C@@H](CCCCN)C(=O)N[C@@H](CCCCN)C(=O)N[C@@H](CC(C)C)C(=O)N[C@@H](CCC(N)=O)C(=O)N[C@@H](CC(=O)O)C(=O)N[C@H](C(=O)N[C@@H](Cc1cnc[nH]1)C(=O)N[C@@H](CC(N)=O)C(=O)N[C@@H](Cc1ccccc1)C(N)=O)C(C)C)C(C)C", "assay": "ELISA", "test system": "CD-1 mouse, female, serum", "conditions": "intravenous, 10 nmol/kg", "half-life [h]": 0.14}
{"Compound": "CCOC(=O)C1=C(CN2CCC[C@@H]2C(=O)Nc2ccc(B(O)O)cc2)NC(c2nccs2)=N[C@H]1c1ccc(F)cc1Br", "test system": "ICR mouse, plasma", "conditions": "oral, 10 mg/kg", "half-life [h]": "0.66 ± 0.34"}
{"Compound": "COc1ccc2nc(-c3ccccn3)c(N(C)c3ccc(F)cc3)n2c1", "test system": "CD1 mouse, male, fasted, plasma", "conditions": "oral, 50 mg/kg, with: ABT 50 mg/kg", "half-life [h]": 1.61}
{"Compound": "O=C(O)C[C@H](O)C[C@H](O)/C=C/c1c(C2CC2)nc2ccccc2c1-c1ccc(F)cc1", "test system": "FVB wild-type mouse, plasma", "conditions": "oral, 5 mg/kg, with: silymarin 500 mg/kg oral", "half-life [h]": 3}
{"note": "A few entries again:"}
{"Compound": "Fc1ccc(-c2nn3cc(F)ccc3c2-c2ccncc2)cc1", "test system": "CD1 mouse female", "conditions": "oral, 25 mg/kg", "half-life [h]": 25.7}
{"Compound": "COc1cc(C)[nH]c(=O)c1CN1CCc2c(Cl)cc([C@H](OC)C3COC3)c(Cl)c2C1=O", "test system": "female CB17 SCID mouse, HT-1376 xenograft, plasma", "conditions": "75 mg/kg, day 1", "half-life [h]": 1.01}
